Published values of several laboratories.
Numbered parts are unrelated; each lists some results of a single study.

Study 1
Target: Interferon regulatory factor 3, full length, phosphomimetic (IRF3, Homo sapiens, UniProt Q14653, residues 1-427, S386D/S396D/S398D/S402D/T404D/S405D)
Method: protein-binding microarray
Molecule type: double-stranded DNA, one strand shown
Sample: in vitro
Concentration: 2540 nM top
Setting: 60-bp whole probe
With: salmon DNA 0.4 mg/ml
Reference: random background probes
Direction: higher = stronger binding
Measurement: fitted relative affinity
Constant ends, left off below: GCCTAGCAC … GTCTTGATTCGCTTGACGCTGCTG
Target sequence (chain): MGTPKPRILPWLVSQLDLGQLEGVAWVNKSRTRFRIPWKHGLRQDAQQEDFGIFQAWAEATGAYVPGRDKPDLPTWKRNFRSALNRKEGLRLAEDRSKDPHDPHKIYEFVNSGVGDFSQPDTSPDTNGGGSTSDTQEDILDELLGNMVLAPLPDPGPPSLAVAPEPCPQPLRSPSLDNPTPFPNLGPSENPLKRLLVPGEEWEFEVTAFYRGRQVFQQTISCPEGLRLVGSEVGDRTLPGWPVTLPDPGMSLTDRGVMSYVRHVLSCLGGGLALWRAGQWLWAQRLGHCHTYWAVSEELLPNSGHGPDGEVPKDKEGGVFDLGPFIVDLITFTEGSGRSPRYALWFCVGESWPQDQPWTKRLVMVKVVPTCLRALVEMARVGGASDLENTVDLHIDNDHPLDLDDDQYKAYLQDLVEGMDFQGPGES
TTAGAACTGAGCCTGGATTAGTGCTAG: -0.65 z-score
TGGAACCAGCGAACGAGCGGGTGCTAG: -0.704 z-score
CTTAACCTGGGTCTCTGAAGGTGCTAG: 0.212 z-score
GACGATTCTAGTTTCGAGACGTGCTAG: 2.8 z-score
TCAAAAATGATTTTTTTACTGTGCTAG: 0.0494 z-score
GACGGACTCGGGACTGGGGACGTGCTA: -0.522 z-score
GACGGTTTCGGGCTGGGGACGTGCTAG: 2.98 z-score
GACGGTTACCTTTTCCTGACGTGCTAG: 5.87 z-score
TTAGATCTCAGTCTCGATGAGTGCTAG: 0.35 z-score

Study 2
Target: Histone acetyltransferase KAT6A, winged helix 2, GST fusion (KAT6A, Homo sapiens, UniProt Q92794, residues 85-181)
Method: protein binding microarray
Molecule type: double-stranded DNA, one strand shown
Sample: in vitro
Concentration: not given
Setting: 8-mer, flanks averaged, mean of 2 arrays, mostly near background
Reference: not given
Direction: higher = stronger binding
Measurement: E-score
Target sequence (chain): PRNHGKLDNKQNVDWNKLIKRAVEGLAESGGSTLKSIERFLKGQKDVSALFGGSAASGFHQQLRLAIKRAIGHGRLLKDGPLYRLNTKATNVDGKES
AGCGCGTA: 0.14
CCTGCCCG: 0.188
ACTGGTAG: -0.0563
ATCGTAAG: -0.0634
AGTAAGGC: -0.0749
CAAACATA: -0.145
CCGTTGCC: 0.0639
ATTGGAGC: -0.0427
ATGATCCG: 0.0609
ACCTGAAA: 0.0226
GGGTAACA: -0.123
ACTGCCGA: 0.163
ATTAGCCC: 0.0867
ACTGCACT: -0.00999

Study 3
Target: Ras GTPase-activating protein-binding protein 1, full length (G3BP1, Homo sapiens, UniProt Q13283)
UniProt Q13283, sequence (whole entry, looked up): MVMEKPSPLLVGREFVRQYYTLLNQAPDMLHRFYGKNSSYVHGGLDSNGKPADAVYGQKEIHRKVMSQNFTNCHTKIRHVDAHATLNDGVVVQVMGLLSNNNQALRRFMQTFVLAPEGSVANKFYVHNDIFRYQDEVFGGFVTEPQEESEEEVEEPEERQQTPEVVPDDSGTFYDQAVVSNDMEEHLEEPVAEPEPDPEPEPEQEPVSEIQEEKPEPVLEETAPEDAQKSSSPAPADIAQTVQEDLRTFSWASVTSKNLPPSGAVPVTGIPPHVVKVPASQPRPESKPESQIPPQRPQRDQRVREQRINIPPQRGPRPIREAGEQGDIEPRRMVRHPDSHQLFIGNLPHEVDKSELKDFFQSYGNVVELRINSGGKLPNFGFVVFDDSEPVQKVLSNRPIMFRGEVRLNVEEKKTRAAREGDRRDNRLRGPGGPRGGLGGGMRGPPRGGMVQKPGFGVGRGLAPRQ
Method: RNA Bind-n-Seq
Molecule type: RNA
Sample: in vitro
Concentration: 200 nM
Setting: whole 134-nt RNA, ends assumed
With: 150 mM LiCl
Reference: input library
Direction: higher = stronger binding
Measurement: log2 enrichment
Library: 7-deaza-guanosine replaces G
Constant ends, left off below: GGGAGUUCUACAGUCCGACGAUC … UGGAAUUCUCGGGUGUCAAGG
AGUCCUGUGCUACACAUCGUAUGUACCGAAUCGGGGAGGGGAAAGGGGUUUUUGGGGAAAGUAUUAUGUUACGCCGUUCGGAUCUGCACU: -0.106
CACAGACAACACGCACCCACACACACACAGAGGGAAGGGGUUGGGAUGGGGACAGGGUGCACAGCAGGGCGGGGUAGGACCCCAGCCCCU: -0.328
AAGUCCUGUGCUACACAUCGUAUGUACCGAAUCGGAAAAAAAGGUUUUUGGUUUGGAAAGUAUUAUGUUACGCCGUUCGGAUCUGCACUU: -3.14
UAACUUUAGAGGAGGAUCUGAUGGAUAUGGCAGUGGACGUGGAUUUGGGGAUGGCUAUAAUGGGUAUGGAGGAGGAGCUGGAGGUGGCAA: 0.413
UAACUUUAGAGGAGGAGCUGAUGGAUAUGGCAGUGGACGUGGAUUUGGGGAUGGCUAUAAUGGGUAUGGAGGAGGACCUGGAGGUGGCAA: -0.185
ACCAUGCAGGUGGGCAUCUUUGGGAAGUGGGGCAAGGGGGGGAUAGGGAGGGGGGUAACUCUUUGGGAACAGGUGGUCCCAGGUCGUUUC: 0.29
CACAGACAACACGCACCCACACAGACACAGAGGGAAGGGGUUGGGAUGGGGAAAGGGUGCACAGCAGGGCGGGGUAGGACCCCAGCCCCU: 0.00159
GUCCUGUGCUACACAUCGUAUGUACCGAAUCGGGGUUUUUUUGGGGAGGGGAAAGGGGAAAGUAUUAUGUUACGCCGUUCGGAUCUGCAC: 0.31
GCAGGAAGUAAAAACAAAUGGAAAUGCUUCGGAUAGUGGCAGGGUUGGGGGUUGCUAAGGAAAGGGUGGGAUGGGAGUGGGUAAAGAGUU: 0.232
CUGUGCUACACAUCGUAUGUACCGAAUCGGGAAAAAAAGGAAAAAAAGGGGAAAAAAAGGGAAAGUAUUAUGUUACGCCGUUCGGAUCUG: -0.0384

Mixed results
PhoQ, residues 284 288 289 292 302 303 SIHMAM  fold induction (PhoP, residues 12 14 15 18 19 AQCLL (Escherichia coli, UniProt P23836); Sort-seq, measured: YFP reporter; E. coli; PhoQ-PhoP variant library, with: 10 µM Mg2+; reference: high Mg2+ state, higher = stronger signaling): 5.53
